Assay results pooled from the literature.
Each numbered part is a random draw from the data of one study; scales do not carry over between parts. Changes are numbered by the printed parent chain.

Set 1
Target: Sal-like protein 4, full length isoform A (SALL4, Homo sapiens, UniProt Q9UJQ4, residues 1-1053)
Sequence of UniProt Q9UJQ4 (whole entry, looked up): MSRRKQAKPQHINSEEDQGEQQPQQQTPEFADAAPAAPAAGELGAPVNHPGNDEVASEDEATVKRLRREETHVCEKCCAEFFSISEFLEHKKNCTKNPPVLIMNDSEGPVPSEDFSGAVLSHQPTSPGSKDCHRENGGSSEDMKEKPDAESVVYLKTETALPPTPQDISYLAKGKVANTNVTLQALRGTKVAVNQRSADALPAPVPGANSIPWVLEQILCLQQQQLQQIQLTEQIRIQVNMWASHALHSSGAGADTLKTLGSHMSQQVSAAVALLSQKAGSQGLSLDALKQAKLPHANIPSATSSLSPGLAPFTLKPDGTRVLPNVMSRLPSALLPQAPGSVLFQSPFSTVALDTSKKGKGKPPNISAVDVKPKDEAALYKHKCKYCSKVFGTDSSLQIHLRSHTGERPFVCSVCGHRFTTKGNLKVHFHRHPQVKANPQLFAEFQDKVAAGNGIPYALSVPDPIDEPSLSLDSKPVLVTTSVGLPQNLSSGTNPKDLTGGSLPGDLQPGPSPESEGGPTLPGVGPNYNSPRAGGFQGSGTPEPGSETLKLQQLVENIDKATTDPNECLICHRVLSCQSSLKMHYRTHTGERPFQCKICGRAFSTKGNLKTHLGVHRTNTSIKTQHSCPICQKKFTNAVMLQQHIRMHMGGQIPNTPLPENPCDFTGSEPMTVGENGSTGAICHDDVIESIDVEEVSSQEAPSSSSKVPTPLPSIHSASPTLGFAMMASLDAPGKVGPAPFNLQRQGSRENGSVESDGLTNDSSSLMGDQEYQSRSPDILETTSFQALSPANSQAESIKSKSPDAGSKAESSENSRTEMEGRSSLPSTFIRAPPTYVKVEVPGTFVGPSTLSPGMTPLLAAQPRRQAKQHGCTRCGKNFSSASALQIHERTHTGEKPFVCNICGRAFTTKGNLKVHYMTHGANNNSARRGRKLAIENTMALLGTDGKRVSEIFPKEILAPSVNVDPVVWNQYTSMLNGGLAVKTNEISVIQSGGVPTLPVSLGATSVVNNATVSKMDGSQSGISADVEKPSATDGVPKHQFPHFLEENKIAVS
Technique: universal PBM
Molecule type: double-stranded DNA, one strand shown
Matrix: in vitro
Tested at: 600 nM
Notes: 8-mer, flanks averaged, mean of replicates
Reading: higher = stronger binding
The E-score of `ACACTGGC` is reported as -0.131.
The E-score of `CGGTGCAG` is reported as -0.23.
For `CAGTTTGG`, the E-score was -0.153.
The E-score of `GTAGAATA` is reported as 0.295.
`CAAGTACA` has an E-score of 0.0539.
For `GACACCGA`, the E-score was -0.155.
For `AGGAACTA`, the E-score was -0.00464.
`CGTCACCA` has an E-score of -0.0317.
With `CTCCGGCC` the E-score was -0.338.
With `AGTCACAG` the E-score was 0.0376.
With `GTAGATAC` the E-score was 0.136.
For `AAAGCGGC`, the E-score was -0.292.
For `CCCGTACG`, the E-score was -0.309.
For `GCGAGAGC`, the E-score was -0.246.
`AGCTTATG` has an E-score of 0.23.
With `ATGTTTGC` the E-score was 0.0949.
`AAGTCGTA` gave an E-score of 0.159.
For `ACCTATCA`, the E-score was 0.0134.

Set 2
Target: Histone acetyltransferase KAT6A, both winged helices, GST fusion (KAT6A, Homo sapiens, UniProt Q92794, residues 1-181)
Technique: protein binding microarray
Molecule type: double-stranded DNA, one strand shown
Matrix: in vitro
Tested at: not given
Notes: 8-mer, flanks averaged, mean of 2 arrays, mostly near background
Baseline: not given
Reading: higher = stronger binding
Construct (chain): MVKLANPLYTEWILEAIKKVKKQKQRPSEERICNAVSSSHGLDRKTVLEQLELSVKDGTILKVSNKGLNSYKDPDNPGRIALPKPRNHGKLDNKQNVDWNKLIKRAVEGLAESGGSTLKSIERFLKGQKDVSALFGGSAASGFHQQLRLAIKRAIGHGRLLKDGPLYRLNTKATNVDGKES
The E-score of `CGATTACC` is reported as 0.113.
`CTATACTC` has an E-score of -0.0222.
With `CACGGGAG` the E-score was 0.119.
For `ACGAGGGG`, the E-score was -0.209.
The E-score of `CCCAGGCG` is reported as -0.131.
With `CACTTAGC` the E-score was -0.0678.
`GTGGAGTA` gave an E-score of -0.233.
The E-score of `ACTCCAGA` is reported as -0.194.
The E-score of `CGAGGTAG` is reported as -0.00272.
With `GGTGATCA` the E-score was -0.0655.
`ATCGATGC` gave an E-score of 0.0293.
With `ACCCGAGG` the E-score was 0.0783.
`ACTCTTGG` gave an E-score of -0.158.
`ACGCAGGC` has an E-score of 0.0905.
`CCATTCGG` gave an E-score of -0.0989.
The E-score of `TGCACTAA` is reported as -0.042.

Set 3
Target: CCNB1, cyclin fold, Cln2 fusion (human)
Technique: yeast growth competition, sequencing
Matrix: yeast
Notes: weak parent motif
Baseline: not given
Reading: higher = stronger binding
Parent: PLK5 docking peptide (human); IFRKVGQRLLTQC
`V5A` — result for “normalised enrichment score”: -0.0359.
Under “normalised enrichment score”, `L10A` is recorded as 0.215.
Under “normalised enrichment score”, `G6A` is recorded as 0.0371.
`K4A` — result for “normalised enrichment score”: -0.0019.
For `R3A`, “normalised enrichment score” read 0.233.
`F2A`: “normalised enrichment score” 0.423.

Set 4
Target: Ras GTPase-activating protein-binding protein 1, RRM domain (G3BP1, Homo sapiens, UniProt Q13283)
Sequence of UniProt Q13283 (whole entry, looked up): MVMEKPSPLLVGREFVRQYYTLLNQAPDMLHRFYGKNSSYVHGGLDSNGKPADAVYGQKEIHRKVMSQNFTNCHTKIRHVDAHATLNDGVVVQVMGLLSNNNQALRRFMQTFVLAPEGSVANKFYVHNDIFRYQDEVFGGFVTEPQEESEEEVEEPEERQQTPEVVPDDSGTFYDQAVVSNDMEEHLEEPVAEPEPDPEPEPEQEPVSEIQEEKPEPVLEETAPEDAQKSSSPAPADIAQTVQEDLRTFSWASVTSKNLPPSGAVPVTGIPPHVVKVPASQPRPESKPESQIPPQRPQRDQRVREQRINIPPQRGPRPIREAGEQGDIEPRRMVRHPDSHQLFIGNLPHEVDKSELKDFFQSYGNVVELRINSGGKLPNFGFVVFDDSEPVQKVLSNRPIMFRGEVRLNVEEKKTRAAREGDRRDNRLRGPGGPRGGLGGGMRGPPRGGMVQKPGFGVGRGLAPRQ
Technique: RNA Bind-n-Seq
Molecule type: RNA
Matrix: in vitro
Tested at: 1 µM
Notes: whole 134-nt RNA, ends assumed
With: 150 mM KCl
Baseline: input library
Reading: higher = stronger binding
All sequences stand within: GGGAGUUCUACAGUCCGACGAUC … UGGAAUUCUCGGGUGUCAAGG
For `AGUUCUAUCUCUGGGGUGACUGCCGCAUAUAACCGAGAACAGCUGUGGCUGGCCAAUGAAGGCCUGAUCACCAGGCUGCAGGCUCGCUGC`, the log2 enrichment was -0.0885.
With `UCCUGUGCUACACAUCGUAUGUACCGAAUCGGGGUUUUUUGGGUUUUUUGGUUUUUUGGGAAAGUAUUAUGUUACGCCGUUCGGAUCUGC` the log2 enrichment was -0.158.
For `UCCUGUGCUACACAUCGUAUGUACCGAAUCGGGGUUUUUGGGGAAAAAGGGGAAAGGGGAAAGUAUUAUGUUACGCCGUUCGGAUCUGCA`, the log2 enrichment was 1.2.
`UCUGCUAAAGAGAAAGGAAAAUUUGAAGAUAUGGCAAAAGCGGACAAGGCCCGUUAUGAAAGAGAAAUGAAAACCUAUAUCCCUCCCAAA` has a log2 enrichment of 0.0268.
`UGGGAGGUGGAUUUUGUUUAUUUUUUUAGCUCGUUUCCAGGGGUGGGAAUUUUUUUUUAAUAUGUGUCAUGAAUAAAGUUGUUUUUGAAA` gave a log2 enrichment of 2.03.
`GUCCUGUGCUACACAUCGUAUGUACCGAAUCAAAUUUUUAAACCCCCAAACCCCCAAAAAAGUAUUAUGUUACGCCGUUCGGAUCUGCAC` gave a log2 enrichment of -0.759.
The log2 enrichment of `GUCCUGUGCUACACAUCGUAUGUACCGAAUCGGCCCCCGGGGCCCCCGGGGCCCCCGGGAAAGUAUUAUGUUACGCCGUUCGGAUCUGCA` is reported as -0.479.
With `AGUCCUGUGCUACACAUCGUAUGUACCGAAUCGGGAAAAAGGGAAAAAAAGGGUGGGAAAGUAUUAUGUUACGCCGUUCGGAUCUGCACU` the log2 enrichment was 0.707.
`UCGUUCCCCCCGCCACGAGAAGAAGAAGAAGGUCCGUAAAUACUGGGACGUGCCACCCCCAGGCUUUGAGCACAUCACCCCAAUGCAGUA` has a log2 enrichment of -0.234.

Set 5
Target: ABI1, truncated, D143A, DHFR fusion (Arabidopsis thaliana)
Technique: DHFR PCA, deep sequencing
Matrix: yeast
Notes: methotrexate growth selection, single substitutions
With: (+)-ABA 200 µM
Baseline: wild-type fitted maximum
Reading: higher = stronger binding
Parent: PYL1, truncated, DHFR fusion (Arabidopsis thaliana); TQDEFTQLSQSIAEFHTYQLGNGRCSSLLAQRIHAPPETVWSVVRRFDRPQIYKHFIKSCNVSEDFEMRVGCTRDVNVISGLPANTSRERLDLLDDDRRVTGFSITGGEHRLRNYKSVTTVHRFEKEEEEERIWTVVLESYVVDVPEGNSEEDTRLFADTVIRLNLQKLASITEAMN; partner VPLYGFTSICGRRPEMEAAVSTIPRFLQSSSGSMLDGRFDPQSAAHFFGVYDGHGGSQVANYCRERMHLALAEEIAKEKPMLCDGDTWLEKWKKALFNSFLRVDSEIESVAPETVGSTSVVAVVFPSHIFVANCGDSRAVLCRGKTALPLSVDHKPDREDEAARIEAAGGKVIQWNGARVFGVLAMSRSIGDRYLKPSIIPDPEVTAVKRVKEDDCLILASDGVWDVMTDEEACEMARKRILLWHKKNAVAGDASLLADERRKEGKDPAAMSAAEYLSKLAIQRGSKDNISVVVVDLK
`A170N` — result for “relative binding score”: 60.8%.
For `N114H`, “relative binding score” read 94.1%.
`I57P`: “relative binding score” 6.25%.
`I79L` — result for “relative binding score”: 83%.
`S87A`: “relative binding score” 89.4%.
`E131Q`: “relative binding score” 109%.
`K58L`: “relative binding score” 85%.
`L138T` — result for “relative binding score”: 38.6%.
For `S80T`, “relative binding score” read 98.2%.
For `E89N`, “relative binding score” read 2.09%.
Under “relative binding score”, `Q167P` is recorded as -2.19%.
`E128V`: “relative binding score” 103%.
`R45K` — result for “relative binding score”: 88.9%.
`N165Y`: “relative binding score” 21.7%.
`Q31V`: “relative binding score” 71.7%.
For `P36N`, “relative binding score” read 87.6%.
`Y18E`: “relative binding score” 81.8%.
`F157H`: “relative binding score” 5.47%.
`G107F`: “relative binding score” 31.2%.

Set 6
Target: UBE2J2 UBC core domain (UniProt Q8N2K1)
Technique: yeast two-hybrid
Matrix: yeast
Notes: mostly zero background
Baseline: not given
Reading: higher = stronger interaction
B1: MDM2 RING domain (UniProt Q00987); chain TQDKEESVESSLPLNAIEPCVICQGRPKNGCIVHGKTGHLMACFTCAKKLKKRNKPCPVCRQPIQMIVLTYFP
B2: TRIM28 RING domain (UniProt Q13263); chain GAEALELLEHCGVCRERLRPEREPRLLPCLHSACSACLGPAAPAAANSSGDGGAAGDGTVVDCPVCKQQCFSKDIVE
B3: RNF115 RING domain (UniProt Q9Y4L5); chain TQEQVDMGLECPVCKEDYTVEEEVRQLPCNHFFHSSCIVPWLELHDTCPVCRKSLNGEDSTR
B4: RFPL3 RING domain (UniProt O75679); chain MAALFQEASSCPVCSDYLEKPMSLECGCTVCLKCINSLQKEPHGEDLLCCCCSMVSQRNKIRP
B5: TRIM2 RING domain (UniProt Q9C040); chain VRQIDKQFLICSICLERYKNPKVLPCLHTFCERCLQNYIPAHSLTLSCPVCRQTSILPEKGV
B6: MARCHF2 RING domain (UniProt Q9P0N8); chain RLLSTVIRALDTPSDGPFCRICHEGANGECLLSPCGCTGTLGAVHKSCLEKWLSSSNTSYCELCHTEFAVEKRPRPLTEWL
B7: CBLL1 RING domain (UniProt Q75N03); chain GEKDDTPVHFCDKCGLPIKIYGRMIPCKHVFCYDCAILHEKKGDKMCPGCSDPVQRIEQCT
Construct (chain): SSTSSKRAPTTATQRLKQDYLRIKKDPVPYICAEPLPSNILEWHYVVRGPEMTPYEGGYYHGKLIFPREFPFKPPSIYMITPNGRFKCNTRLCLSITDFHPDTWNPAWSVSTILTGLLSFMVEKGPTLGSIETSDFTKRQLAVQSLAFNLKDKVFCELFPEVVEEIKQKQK
`B1 (MDM2 RING domain)` — result for “lacZ reporter activity”: 4290.
For `SNNDLASLFECPVCFDYVLPPILQCQSGHLVCSNCRPKLTCCPTCRGPLGSIRNLA (SIAH1 RING domain (UniProt Q8IUQ4))`, “lacZ reporter activity” read 5400.
`B2 (TRIM28 RING domain)` — result for “lacZ reporter activity”: 0.
For `B3 (RNF115 RING domain)`, “lacZ reporter activity” read 0.
`PLRRLQEEKLCKICMDRHIAVVFIPCGHLVTCKQCAEAVDRCPMCSAVIDFKQRVF (BIRC8 RING domain (UniProt Q96P09))` — result for “lacZ reporter activity”: 0.
For `KITELNPHLMCALCGGYFIDATTIVECLHSFCKTCIVRYLETNKYCPMCDVQVHKTRPLL (PCGF2 RING domain (UniProt P35227))`, “lacZ reporter activity” read 2490.
For `B4 (RFPL3 RING domain)`, “lacZ reporter activity” read 0.
`B5 (TRIM2 RING domain)` — result for “lacZ reporter activity”: 0.
`B6 (MARCHF2 RING domain)`: “lacZ reporter activity” 0.
`FLSKVEETFQCICCQELVFRPITTVCQHNVCKDCLDRSFRAQVFSCPACRYDLGRSYAMQ (UHRF1 RING domain (UniProt Q96T88))` — result for “lacZ reporter activity”: 0.
Under “lacZ reporter activity”, `B7 (CBLL1 RING domain)` is recorded as 0.

A few entries again (set 1):
For `AAAGCGGC`, the E-score was -0.292.
With `AGTCACAG` the E-score was 0.0376.
With `ATGTTTGC` the E-score was 0.0949.
The E-score of `CGGTGCAG` is reported as -0.23.
For `CCCGTACG`, the E-score was -0.309.
The E-score of `GTAGAATA` is reported as 0.295.
For `AGGAACTA`, the E-score was -0.00464.
